Experimental data of several laboratories.
Each numbered part is a random draw from the data of one study; scales do not carry over between parts. Substitutions count along the parent as printed.

Series 1 — method: Sort-seq; item: YFP reporter; sample: E. coli; notes: PhoQ-PhoP variant library; added: 10 µM Mg2+; reference: high Mg2+ state; direction: higher = stronger signaling
Substance: PhoQ, residues 284 288 289 292 302 303 TGYLSA
target	fold induction
PhoP, residues 12 14 15 18 19 NYFRM (Escherichia coli, UniProt P23836)	12.8
PhoP, residues 12 14 15 18 19 QYFSL (Escherichia coli, UniProt P23836)	5.62
PhoP, residues 12 14 15 18 19 TQALL (Escherichia coli, UniProt P23836)	6.33

Series 2 — target: Sox, HMG box (Pigoraptor chileana); method: Spec-seq; form: double-stranded DNA, one strand shown; sample: in vitro; concentration: not given; notes: whole probe, mean of replicates; reference: not given; direction: lower = stronger binding; all sequences stand within: GAGTCGTCTCGTCAGCAC … CCGTAGAGCACTCAGGTC
Target sequence (chain): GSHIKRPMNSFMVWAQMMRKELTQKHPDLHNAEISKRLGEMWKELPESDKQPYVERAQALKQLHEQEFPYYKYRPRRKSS
Oligonucleotide	relative binding energy
AAAAGTT	-1.22 ln ratio
ATATGTT	-0.532 ln ratio
CTTGGTT	0.62 ln ratio
CATAAGA	-0.367 ln ratio
CATTTGA	0.437 ln ratio
CATTAGC	0.265 ln ratio
CATGGAA	0.458 ln ratio
CAATGTT	-0.407 ln ratio
ACCTGTT	-0.705 ln ratio
CATAGCT	-0.211 ln ratio
CATCTGT	-0.671 ln ratio
CATTAAT	0.00516 ln ratio
CATTAGT	0.115 ln ratio
ACTCGTT	0.206 ln ratio
CATGTTT	1.02 ln ratio

Series 3 — target: CCNB3, cyclin fold, Cln2 fusion (human); method: yeast growth competition, sequencing; sample: yeast; notes: strong parent motif; reference: not given; direction: higher = stronger binding
Parent: BRCA2 docking peptide (human); PSIKRNLLNEFDR
Change	normalised enrichment score
S2Y	0.957
I3Q	-0.0885
I3W	0.669
S2K	1.39
N6M	-0.075
S2F	1.13
L7C	0.402
P1H	1.34
R5Y	-0.127
N9L	2.02
S2M	1.18
L8P	-0.196
L7P	-0.249
S2E	0.366
F11R	0.304
R5S	0.0836
K4D	0.169
E10A	0.173
N9W	1.8
R5K F11L	-0.352

Series 4 — method: RNAcompete; form: RNA; sample: in vitro; concentration: 20 nM; notes: 7-mer, probes averaged, single round; reference: mean of 7-mers; direction: higher = stronger binding
Target: PABPC1L2, full length, GST fusion (mouse, UniProt A0ABA7IW68)
Residues (chain): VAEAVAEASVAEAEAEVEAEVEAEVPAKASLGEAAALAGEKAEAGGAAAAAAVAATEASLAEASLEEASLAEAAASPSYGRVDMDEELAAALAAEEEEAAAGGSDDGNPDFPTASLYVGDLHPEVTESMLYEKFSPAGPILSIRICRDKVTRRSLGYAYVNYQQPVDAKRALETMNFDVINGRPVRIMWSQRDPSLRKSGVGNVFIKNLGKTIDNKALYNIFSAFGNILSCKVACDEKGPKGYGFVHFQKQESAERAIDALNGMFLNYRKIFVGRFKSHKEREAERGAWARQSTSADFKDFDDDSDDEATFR
Oligonucleotide	7-mer Z-score
GUGUACG	-0.235
UGGUCCG	-0.128
CUCUCCG	-0.556
AGCGUUA	-0.171
GCAAGUA	-0.0609
CGGGUUU	-0.32
CGCCUGA	-0.222
GAGAUAA	0.499
CCCGAGC	-0.327
AAGUCUG	0.0297
GCCCCAA	-0.159
UCUGCGG	-0.142
GGAUACC	-0.0609
UUGCACA	-0.17
AAAUUAG	2.09

For quick reference, copied from above (series 2):
Oligonucleotide	relative binding energy
CATCTGT	-0.671 ln ratio
CATTAGC	0.265 ln ratio
AAAAGTT	-1.22 ln ratio
CATGTTT	1.02 ln ratio
